Results pooled from the literature.
A part holds a random share of what one study measured. Positions count from the first letter of the parent shown.

Sample 1 — method: Sort-seq; refers to: YFP reporter; matrix: E. coli; setting: PhoQ-PhoP variant library; added: 10 µM Mg2+; baseline: high Mg2+ state; direction: higher = stronger signaling
Substance: PhoQ, residues 284 288 289 292 302 303 AGHLVA
target | fold induction
PhoP, residues 12 14 15 18 19 TQCLL (Escherichia coli, UniProt P23836) | 9.43
PhoP, residues 12 14 15 18 19 ICWRQ (Escherichia coli, UniProt P23836) | 3.66
PhoP, residues 12 14 15 18 19 VHTVL (Escherichia coli, UniProt P23836) | 14.6

Sample 2 — method: RNA Bind-n-Seq; form: RNA; matrix: in vitro; tested at: 365 nM; baseline: no-protein control; direction: higher = stronger binding
Target: RNA binding protein fox-1 homolog 2, RRM domain, GST-SBP tag (RBFOX2, Homo sapiens, UniProt O43251-10, residues 100-194)
Setting: natural RNA segment, single round, ends assumed
Constant ends, left off below: GGGAGUUCUACAGUCCGACGAUC … UGGAAUUCUCGGGUGCCAA
Residues (chain): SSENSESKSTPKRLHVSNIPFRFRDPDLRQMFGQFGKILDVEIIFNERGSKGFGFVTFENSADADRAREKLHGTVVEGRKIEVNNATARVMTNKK
Strand | RBNS enrichment (R)
AUUCAUUAAAUGGCCCUGGCAUACAGCCACACACAGCUGCAAAUCUCAGCCAAAGAGGGAAAGGAAAGGGUCGCUCUUGACUGCUGAGAGCAUAGCUAAUGUACCUGGAA | 0.504
UACCCCACCUUCCCACACUGUGAGCUAAUGAUGUGUGGUUUCUCUGCACAUAAGUAAAUGUCUUCACGUCAGUGCGUCCGUGGAAAUUGUGAUCUGUUGUAAUAUCAGUU | 0.252
AGGAAAGGGGGAUGUUUUCCUGGUGUUUGGAUGGUCAGCUGGGAGUGUCCAUCAUCAGGGGAAGAUCAAACACAGGUGCACUCAGCUGCCCAGGGCCUCUGGGACACUUG | 0.507
AUGGGGAAGUCCUGGGUGUGGGGACACAGUCGGGUUGACCCAGGGCUGUCUCCCUCCAGAGCCUCCCUCCGGACAAUGAGUCCCCCCUCUUGUCUCCCACCCUGAGAUUG | 0.44
CCCCAGCUCUCCCUACGCUGCUCGGGCCAUUGCCCAGCCAGAUGUGGUCACCUCAGUCCAGCUCUGGGGCCUCCAGGCCAUGUGGCUGUUCCCACGGCCCAGUCCUCGCU | 0.342
UAUCGUUCAUAAAUGUGUCUGGGGGCUUCCUUGUUUGGAAAAUAUGGAUAUCGCUUUGUUUUCCUUUGAAAGUAAUUAUAUCUUAAGAACAUAGUAUCAUGAAUGGAGUA | 1.7
CCCUUAGUACAAUUCUUAGUGUCAAUAGCACAGCACCCCAGCUUGUACAAGUCAUUCUCUGUUAGGAUUCCUUUCAAUUCUCACUGUCUACAAUGCUCUUCAUGGUCUCA | 0.739
AUGAAUAAUCUCUUGUAGGUAACUUUAUUUGAAAAUAAAGAUUUCCUUUUACUUCCAGAAUAACCACAAUGGCUUCUAAAAAGUUCUCAUCUCACACAGCCCUUGUUUUG | 0.437

Sample 3 — method: protein-binding microarray; form: double-stranded DNA, one strand shown; matrix: in vitro; tested at: 940 nM top; setting: 60-bp whole probe; added: salmon DNA 0.4 mg/ml; baseline: random background probes; direction: higher = stronger binding; constant ends, left off below: GCCTAGCAC … GTCTTGATTCGCTTGACGCTGCTG
Target: Interferon regulatory factor 5, full length, phosphomimetic (IRF5, Homo sapiens, UniProt Q13568-2, residues 1-514, S451D/S453D/S456D/S462D)
Strand | fitted relative affinity [z-score]
TTAGAACTGGGGACGGGATTAGTGCTA | 0.415
GACGGTCTCCTACTGCCGACGTGCTAG | 0.145
GATGGTTTCGGTATCGGGACGTGCTAG | 14.7
TCACTGCTCCTCTTTTTTACTGTGCTA | 1.12
GACGGTATCCTTATCCTAACGTGCTAG | 0.19
GACGTTATCGGTATCGGGACGTGCTAG | 1.81
TCATCTCTCTATTCAGAACTGTGCTAG | 1.34

Sample 4 — target: CREBZF, bZIP domain (human); method: DHFR protein complementation; matrix: yeast; baseline: wild-type JUN-FOS pair; direction: higher = stronger binding
Setting: single substitutions, most at no-binding floor
Starting sequence: JUN, bZIP domain (human); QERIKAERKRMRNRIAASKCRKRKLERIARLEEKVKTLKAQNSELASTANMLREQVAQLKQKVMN; partner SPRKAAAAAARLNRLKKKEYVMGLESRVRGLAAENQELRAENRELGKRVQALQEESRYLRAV
Variant | binding fitness
E32L | -1.52 natural log
S47G | -1.36 natural log
A49W | -1.41 natural log
L52W | -1.55 natural log
R53P | -1.52 natural log
K34P | -1.47 natural log
T48C | -1.58 natural log

Excerpt of the above (sample 3):
Strand | fitted relative affinity [z-score]
GACGGTATCCTTATCCTAACGTGCTAG | 0.19
GACGTTATCGGTATCGGGACGTGCTAG | 1.81
TCACTGCTCCTCTTTTTTACTGTGCTA | 1.12
TTAGAACTGGGGACGGGATTAGTGCTA | 0.415
